Published values pooled from the literature.
Compare with care: the assays were run in different laboratories.
Organism: Pseudomonas aeruginosa

Compound	test	system	conditions	MIC
O=C(O)CC[C@@H]1NC(=O)[C@H](CCC(=O)O)NC(=O)[C@H](CCC(=O)O)NC(=O)[C@H](Cc2c[nH]c3ccccc23)NC(=O)[C@H](Cc2c[nH]c3ccccc23)NC(=O)[C@H](Cc2c[nH]c3ccccc23)NC(=O)[C@H](Cc2c[nH]c3ccccc23)NC(=O)[C@H](CCC(=O)O)NC1=O	broth microdilution	PAO1	37 °C	> 158 µg/mL
COc1ccc2ccc3c(c2c1)C=[N+]1C2CCCCC2[N+]2=Cc4cc(C)ccc4[O][Au-]21[O]3.F[P-](F)(F)(F)(F)F (stereo not shown)	bacterial growth, broth microdilution	carbapenem-resistant clinical isolate	24 h	> 20 µM
COc1ccc(-c2ccn(CC[C@](C)(C(=O)NO)S(C)(=O)=O)c(=O)c2)c(F)c1	–	PA-1955 MexEF-OprN producing	–	2 µg/mL
CC(=O)N[C@H](CCCCN)C(=O)N[C@H](CC(C)C)C(=O)N[C@H](CCCCN)C(=O)N[C@H](CO)C(=O)N[C@H](CC(C)C)C(=O)N[C@H](CC(C)C)C(=O)N[C@H](CCCCN)C(=O)N[C@@H](C(=O)N[C@H](CC(C)C)C(=O)N[C@H](CO)C(=O)N[C@H](CCCCN)C(=O)N[C@H](C)C(=O)N[C@H](CCCCN)C(=O)N[C@H](CCCCN)C(=O)N[C@H](CCCCN)C(=O)N[C@H](CC(C)C)C(=O)N[C@H](CC(C)C)C(=O)N[C@H](CCCCN)C(=O)N[C@@H](C(=O)N[C@H](C)C(=O)N[C@H](CC(C)C)C(=O)N[C@H](CCCCN)C(=O)N[C@H](C)C(=O)N[C@H](CC(C)C)C(=O)N[C@H](CO)C(=O)N[C@H](CCCCN)C(N)=O)[C@H](C)O)[C@H](C)O	broth microdilution	PAK	24 h, 37 °C	1.3 µM
CC(C)C[C@@H]1NC(=O)[C@@H](CC(C)C)NC(=O)[C@H](CCN)NC(=O)[C@@H](NC(=O)[C@H](CCN)NC(=O)[C@@H](N)[C@@H](C)O)CCNC(=O)[C@H]([C@@H](C)O)NC(=O)[C@H](CCN)NC(=O)[C@H](CCN)NC1=O	broth microdilution	ATCC 27853, CAMHB with polysorbate-80	16 h	> 64 µg/mL
CC(=O)N[C@H](CCCCN)C(=O)N[C@H](CC(C)C)C(=O)N[C@H](CCCCN)C(=O)N[C@H](CO)C(=O)N[C@H](CC(C)C)C(=O)N[C@H](CC(C)C)C(=O)N[C@H](CCCCN)C(=O)N[C@@H](C(=O)N[C@H](CC(C)C)C(=O)N[C@H](CO)C(=O)N[C@H](CCCCN)C(=O)N[C@H](C)C(=O)N[C@H](CCCCN)C(=O)N[C@H](CCCCN)C(=O)N[C@H](CCCCN)C(=O)N[C@H](CCCCN)C(=O)N[C@H](CC(C)C)C(=O)N[C@H](CCCCN)C(=O)N[C@@H](C(=O)N[C@H](CC(C)C)C(=O)N[C@H](CC(C)C)C(=O)N[C@H](CCCCN)C(=O)N[C@H](C)C(=O)N[C@H](CC(C)C)C(=O)N[C@H](CO)C(=O)N[C@H](CCCCN)C(N)=O)[C@H](C)O)[C@H](C)O	broth microdilution	M2	24 h, 37 °C	2.6 µM
CC(C)CCCCC(=O)N[C@@H](CCN)C(=O)N[C@H](C(=O)N[C@@H](CCN)C(=O)N[C@H]1CCNC(=O)[C@H]([C@@H](C)O)NC(=O)[C@H](CCN)NC(=O)[C@H](CCN)NC(=O)[C@H](CC(C)C)NC(=O)[C@@H](Cc2ccccc2)NC(=O)[C@H](CCN)NC1=O)[C@@H](C)O	broth microdilution	PAO1	37 °C	0.25 µg/mL
COc1cc(OC)c2c(c1)C(=O)c1cc3oc(=O)cc(-c4ccc(Cl)cc4)c3c(O)c1C2=O	microbial growth	–	–	64 µg/mL
COc1ccc2c(oc3c4ccc(O)cc4oc(=O)c23)c1CC=C(C)C	–	ATCC 10145	–	128 µg/mL
COc1ccc2ccc3c(c2c1)C=[N+]1C2CCCCC2[N+]2=Cc4cccc(C)c4[O][Au-]21[O]3.F[P-](F)(F)(F)(F)F (stereo not shown)	bacterial growth, broth microdilution	carbapenem-resistant	24 h	> 20 µM
CC[C@@H](C)[C@@H](NC(=O)[C@@H](C)NC(=O)[C@@H](CCCCN)NC(=O)[C@@H](CC(C)C)NC(=O)[C@@H](C)NC(=O)[C@H](NC(=O)[C@@H](Cc1c[nH]cn1)NC(=O)[C@@H](CC(C)C)NC(=O)[C@H](NC(=O)[C@H](NC(=O)[C@@H](CCCCN)NC(=O)[C@H](NC(=O)[C@@H](C)NC(=O)[C@@H](CO)NC(=O)[C@@H](CCCCN)NC(=O)[C@@H](Cc1ccccc1)NC(=O)[C@H](NC(=O)[C@@H](CCCCN)NC(=O)[C@@H](CC(C)C)NC(=O)[C@@H](Cc1ccccc1)NC(=O)[C@@H](CO)NC(=O)[C@@H](CCCCN)NC(=O)[C@@H](Cc1c[nH]c2ccccc12)NC(=O)[C@@H](CCCCN)NC(C)=O)[C@H](C)O)C(C)C)[C@H](C)O)C(C)C)[C@H](C)O)C(=O)N[C@H](CO)C(=O)N[C@H](CO)C(N)=O	broth microdilution	PAK	24 h, 37 °C	2.6 µM
N#Cc1ccc2cccc(O)c2n1	microbial growth, agar dilution	ATCC27853	–	> 1500 µM
COc1ccc2ccc3c(c2c1)C=[N+]1C2CCCCC2[N+]2=Cc4ccc(-c5ccccc5)cc4[O][Au-]21[O]3.F[P-](F)(F)(F)(F)F (stereo not shown)	bacterial growth, broth microdilution	carbapenem-resistant	24 h	> 20 µM
COc1c(NC(=O)c2ccc(NC(=O)c3ccc(NC(=O)[C@H](CC#N)NC(=O)c4ccc(NC(=O)/C(C)=C/c5ccc(O)cc5)cc4)cc3)c(OC)c2O)ccc(C(=O)O)c1O	–	DSM 46316 ESBL 2	–	16 µg/mL
COc1ccc2c(c1)C=[N+]1C3CCCCC3[N+]3=Cc4c(ccc5ccc(OC)cc45)[O][Au-]13[O]2.F[P-](F)(F)(F)(F)F (stereo not shown)	bacterial growth, broth microdilution	carbapenem-resistant	24 h	> 20 µM
O=[N+]([O-])c1cccc(S(=O)(=O)NC[C@@H](O)[C@@H]2CCc3cc(F)ccc3O2)c1	microbial growth	–	–	18.5 µg/mL
CC1(C)S[C@@H]2[C@H](NC(=O)[C@H](NC(=O)C3=C(O)C(c4ccccc4F)NC3=O)c3ccccc3)C(=O)N2[C@H]1C(=O)O (stereo partly shown)	broth microdilution	PAO1, Mueller-Hinton broth	with: 2,2'-bipyridyl 30 µg/mL	25 µg/mL
CCOC(=O)c1ccc2c(c1)n(CC)[c]([Au-][Cl])[n+]2CC	broth dilution	PA7 DSM 24068	20 h, 37 °C	> 30 µM
CC(C)=CCc1cc([C@@H]2CC(=O)c3ccc(O)c(CC=C(C)C)c3O2)c(O)c(CC=C(C)C)c1O	–	ATCC 10145	–	128 µg/mL
